Published values of several laboratories.
Every numbered part comes from another study and shows a few of its results, in no order. Changes are numbered by the printed parent chain.

Set 1
Target: RNA binding protein fox-1 homolog 2, RRM domain, GST-SBP tag (RBFOX2, Homo sapiens, UniProt O43251-10, residues 100-194)
Method: RNA Bind-n-Seq
Molecule type: RNA
Sample: in vitro
Tested at: 365 nM
Notes: natural RNA segment, single round, ends assumed
Relative to: no-protein control
Reading: higher = stronger binding
Constant ends, left off below: GGGAGUUCUACAGUCCGACGAUC … UGGAAUUCUCGGGUGCCAA
Construct (chain): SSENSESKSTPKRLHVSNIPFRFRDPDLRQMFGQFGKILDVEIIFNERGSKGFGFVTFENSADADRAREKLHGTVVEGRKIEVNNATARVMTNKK
Sequence | RBNS enrichment (R)
AUGUUUUCAGGGGAUGCCAUUUAUCCCAAGCUUAUCCUGUAAUUCUAGAAUGACUUGGUGUCCUGAUGCACUUCUCACCAGAGGCUGCCUAGCAGCAUGUGUUAGCCAAA | 6.26
UGGAUUUCUUCUGGGAGCAGCAGAGUCCCUUGUAAAAGACUGCUUUUGUACAGAAUGCGCUAUAAAUUAUACCUUUAAGAAUGUGGGGCCUUUUUUAUGAUUUUGUAAGU | 20.1
CUCCCUUCUGUCUAGAUUCACUUCAGUUUAUUGUUGGGAACUGUGCAGGUCCAAGACCUGGACUCCUGCUUCAGCCCAGGCCAGUACUCCUUGUCUGAGGUGAAAGCCUU | 0.253
CAUUUAGGUGAUGGUGUUUGAUUCAGAGAUGGCUGAAUUUCUAUUCUUAGCUUAUUGUGACUGUUUCAGAUCUAGUUUGGGAACAGAUUAGAGGCCAUUGUCUUCUGUCC | 0.311
AACUGUGUUUCUGAAGUUUGUGCACAUUUUUCUUCACUGUAAUGUUAUUUUACAGCUGUUUGUUAAAAUAGUGAAUAAUUUAAUGAUCCUAAAAGUAACAGGUUUCGUGU | 0.415
UCACCGUGACUGCAGUUCCUGCCCCCAUUCUCUUGGGGUCAGGGAGGGGCUGGGAAGGGCUACUGAAGGCCCCAUUCUCCCACAGGAUGGUGAGGCUGGGAGGAGGAAGA | 0.443
AAACACCCAGAAUCCCAUGUCCUUUGACUUGCAGUGUAGCUAUCUAGAAUGAAACACUUGCCUUGCUAAUCCCAAGUAAGAAGUGACUGGGUGGGGGGUUGCGGGGAGGG | 0.66
GCCCCUCCUCCGUAGUCCUCUCCCUCCGUACAUGCUCCACAGAAAGAAGACCUCUGCUGCCACCUCGGGCUGUGCACUUGGGAUACGGUUGGUUCUCACGCCAUGAGGGA | 0.733

Set 2
Target: Prothrombin, mature alpha-thrombin (F2, Homo sapiens, UniProt P00734)
Method: aptamer microarray, sandwich
Molecule type: DNA with 2'F-ANA
Sample: in vitro
Tested at: 200 nM
Notes: whole 15-mer aptamer, many near background
Together with: Cy3 exosite-II aptamer, 400 nM
Reading: higher = stronger binding
Sequence: GGTTGGTGTGGTTGG
Modification | mean fluorescence intensity
2'F-ANA at 2 7 9 10 11 13 | 119 a.u.
2'F-ANA at 1 3 4 10 12 14 | 51.1 a.u.
2'F-ANA at 1 3 5 7 9 10 11 12 14 15 | 48.5 a.u.
2'F-ANA at 2 3 5 6 7 9 10 12 15 | 81.7 a.u.
2'F-ANA at 3 4 5 6 9 10 12 13 15 | 56.6 a.u.
2'F-ANA at 1 2 3 7 11 12 13 | 327 a.u.
2'F-ANA at 5 7 9 10 12 13 14 | 43.8 a.u.
2'F-ANA at 1 2 3 4 5 7 11 | 53.9 a.u.
2'F-ANA at 4 6 7 10 13 15 | 67.1 a.u.
2'F-ANA at 1 4 5 7 9 10 11 13 14 | 73.4 a.u.
2'F-ANA at 1 3 5 8 9 11 | 58.7 a.u.
2'F-ANA at 4 7 9 11 13 14 15 | 74.3 a.u.
2'F-ANA at 1 2 3 7 9 11 12 15 | 313 a.u.
2'F-ANA at 1 2 3 4 6 7 8 10 11 13 | 54 a.u.
2'F-ANA at 1 2 3 4 6 8 9 11 13 15 | 110 a.u.
2'F-ANA at 1 3 7 9 10 11 | 101 a.u.
2'F-ANA at 4 10 11 13 14 15 | 58.5 a.u.
2'F-ANA at 4 11 14 | 118 a.u.

Set 3
Target: CCNB1, cyclin fold, Cln2 fusion (human)
Method: yeast growth competition, sequencing
Sample: yeast
Notes: strong parent motif
Relative to: not given
Reading: higher = stronger binding
Parent: RBL2 docking peptide (human); STTRRRLFVENDS
Substitution | normalised enrichment score
L7N | 0.428
T3F | 0.259
T2Y | 0.855
N11G | 1.5
T3V | 3.41
F8M | 0.193
F8H | -0.0491
L7H | 0.718
V9H | 1.15
V9D | 1.29
E10D | 1.93
T3L | 1.66
S13K | 0.538
R6L | 1.21
N11E | 1.11
R4Y | 1.37

Set 4
Target: ABI1, truncated, D143A, DHFR fusion (Arabidopsis thaliana)
Method: DHFR PCA, deep sequencing
Sample: yeast
Notes: methotrexate growth selection, single substitutions
Together with: (+)-ABA 200 µM
Relative to: wild-type fitted maximum
Reading: higher = stronger binding
Parent: PYL1, truncated, DHFR fusion (Arabidopsis thaliana); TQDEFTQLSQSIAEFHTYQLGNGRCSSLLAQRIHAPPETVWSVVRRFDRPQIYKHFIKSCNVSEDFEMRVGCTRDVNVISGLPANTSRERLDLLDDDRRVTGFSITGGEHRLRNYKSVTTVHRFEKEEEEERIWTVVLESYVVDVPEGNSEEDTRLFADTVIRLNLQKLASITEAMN
Substitution | relative binding score [%]
I105W | -6.81
Y53V | 27.8
L164G | 83.9
Q51T | 87.8
Q31R | 96
I105S | 90.2
S27P | -18.7
R69L | 96
L93A | 93.3
N22T | 98.2
I33E | -2.11
E127Y | 99.3
P36K | 91.8
E147W | 83.6
L28N | 40.7
T73L | 102

Set 5
Target: MAFF, bZIP domain (human)
Method: DHFR protein complementation
Sample: yeast
Notes: single substitutions, most at no-binding floor
Relative to: wild-type JUN-FOS pair
Reading: higher = stronger binding
Parent: JUN, bZIP domain (human); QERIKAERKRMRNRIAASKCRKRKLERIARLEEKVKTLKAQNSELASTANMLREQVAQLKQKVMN; partner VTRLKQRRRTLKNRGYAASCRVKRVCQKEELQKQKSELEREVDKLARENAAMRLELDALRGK
Substitution | binding fitness
K36C | -1.5 natural log
K36V | -1.51 natural log
R30C | -1.42 natural log
A46Y | -1.44 natural log
K39N | -1.62 natural log
L38H | -1.43 natural log
T48K | -1.47 natural log
L45K | -1.5 natural log
A29V | -1.33 natural log
E33G | -1.47 natural log
M51L | -1.51 natural log
L31I | -1.55 natural log
A57V | -1.57 natural log
L38C | -1.41 natural log
S47P | -1.54 natural log
S47C | -1.43 natural log
L31M | -1.34 natural log
T48Q | -1.48 natural log
E44I | -1.49 natural log
E32G | -1.48 natural log
R53D | -1.53 natural log
L45S | -1.52 natural log
R30W | -1.36 natural log

A few entries again (set 4):
Substitution | relative binding score [%]
Y53V | 27.8
L164G | 83.9
Q51T | 87.8
Q31R | 96
I105S | 90.2
S27P | -18.7
R69L | 96
L93A | 93.3
N22T | 98.2
I33E | -2.11
E127Y | 99.3
P36K | 91.8
